Results pooled from the literature.
Compare with care: the assays were run in different laboratories. Several values in a cell are separate wells, animals, samples, runs or records. ± marks the error that the study gave.

With `CC(C)C[C@H](NC(=O)[C@H](CCCCN)NC(=O)OCC1c2ccccc2-c2ccccc21)C(=O)N[C@H](C(=O)N[C@@H](Cc1ccccc1)C(=O)N[C@@H](Cc1ccccc1)C(=O)N[C@@H](CCCCN)C(=O)NCC(=O)N[C@@H](Cc1ccccc1)C(=O)N[C@@H](C)C(=O)N[C@@H](Cc1c[nH]c2ccccc12)C(=O)N[C@@H](CC(N)=O)C(=O)N[C@H](C(=O)N[C@H]1CSSC[C@@H](C(=O)N[C@@H](Cc2c[nH]cn2)C(=O)N[C@@H](CCCNC(=N)N)C(=O)N[C@@H](CCCNC(=N)N)C(=O)N[C@@H](C)C(=O)N[C@@H](CC(N)=O)C(N)=O)NC(=O)[C@H](C(C)C)NC(=O)[C@H](CCCNC(=N)N)NC(=O)[C@H](C(C)C)NC(=O)CNC(=O)[C@H](CC(N)=O)NC(=O)[C@H](CCCNC(=N)N)NC(=O)[C@H](Cc2ccc(O)cc2)NC(=O)[C@H](C(C)C)NC1=O)C(C)C)C(C)C` the phosphorus was 3.21 ± 0.07 mmol/L (ICR mice, serum; intraductal mammary, 10 mg/kg, day 5).
`NC(=O)c1cccc(-c2cc(OC(=O)NC3CCCCC3)ccc2O)c1` gave a clearance of 33.3 mL/min/kg (mouse; intravenous, 10 mg/kg).
For `C[C@H]1CN(C(=O)CC#N)[C@]12CCN(c1ncnc3[nH]ccc13)C2`, “Cmax at NOAEL” read 1800 ng/mL (rat female; oral, 10 mg/kg repeated daily, 6 months, repeated-dose toxicity study).
`NC(=O)[C@H]1CCN(c2ncnc(N)c2F)C[C@@H]1N1CCC[C@@H](Nc2cc(Cl)cc(C(F)(F)F)c2)C1=O`: “grade ≥3 neutropenia” 0% (B-cell malignancy patients; oral, 246 mg twice daily, dose).
Under “TEAE leading to interruption”, `N[C@@H]1c2ccccc2OC12CCN(c1cnc3c(N4CCCc5ncccc54)n[nH]c3n1)CC2` is recorded as 0% (advanced metastatic solid tumour patients; oral, 10 mg once daily).
Under “adverse events incidence”, `Cc1cccc(Cn2nc(C3CC3)c3c(NC(=O)c4cnc5cc(OCCN6CCN(C)CC6)ccn45)cccc32)n1` is recorded as 9.1% (item: Hypokalemia; human platinum-resistant ovarian cancer; oral, dose not given, all-causality).
`O=C(O)CCCOc1ccc(F)cc1-c1cc(-c2ccccc2C(F)(F)F)n(-c2ccccc2)n1`: “serum enzyme activity” 70.8 ± 5.5 U/L (item: AST; Crl:CD(SD) rats, female, serum; iv, 25 µg/kg, 14 days).
With `O=c1nc(NO)ccn1[C@@H]1O[C@H](CO)[C@@H](O)[C@H]1O` the freeze-thaw stability was 106 ± 1.62% (rat amniotic fluid dialysate; 1000 ng/mL, high concentration, three cycles, with: molnupiravir 250 ng/mL).
`CC(C)[C@H](C(=O)O[C@H](C#N)c1cccc(Oc2ccccc2)c1)c1ccc(Cl)cc1`: “enzyme contribution to clearance” 0.97% (item: CYP2C8; human, age 1 year).
`C[C@@H]1NC(=O)[C@H](CCCCNC(=O)CO/N=C/C(=O)NCCCC[C@@H]2NC(=O)[C@@H](Cc3ccccc3)NC(=O)[C@H](CC(=O)O)NC(=O)CNC(=O)[C@H](CCCNC(=N)N)NC2=O)NC(=O)CNC(=O)[C@@H]2CCCN2C(=O)[C@H](CCCCNC(=O)CO/N=C/C(=O)NCCCC[C@@H]2NC(=O)[C@@H](Cc3ccccc3)NC(=O)[C@H](CC(=O)O)NC(=O)CNC(=O)[C@H](CCCNC(=N)N)NC2=O)NC(=O)[C@H](CCCCNC(=O)CN2CCCNCCNCCCNCC2)NC(=O)[C@H](CCCCNC(=O)CO/N=C/C(=O)NCCCC[C@@H]2NC(=O)[C@@H](Cc3ccccc3)NC(=O)[C@H](CC(=O)O)NC(=O)CNC(=O)[C@H](CCCNC(=N)N)NC2=O)NC(=O)CNC(=O)[C@@H]2CCCN2C(=O)[C@H](CCCCNC(=O)CO/N=C/C(=O)NCCCC[C@@H]2NC(=O)[C@@H](Cc3ccccc3)NC(=O)[C@H](CC(=O)O)NC(=O)CNC(=O)[C@H](CCCNC(=N)N)NC2=O)NC1=O` [copper-64 labelled] gave a tissue uptake of 2.52 ± 0.41 %ID/g (normal mice, spleen; intravenous, 0.74 MBq, 3 h post-injection).
For `Brc1ccc(Oc2cc(Br)c(Br)cc2Br)c(Br)c1`, “dose fraction in skim milk” read 8.73% (whole cow milk; 20 nM nominal).
For `O=C1Nc2cc3[nH]nc(-c4ccncc4)c3cc2CN1Cc1ccccc1`, “patients with increased GGT” read 0% (CTCAE v4.03; advanced solid tumour patients; intravenous, 0.9 mg/kg, schedules 1/2).
With `COc1cccc(Oc2ccccc2NC(=O)CNC(=O)c2cccc3ccccc23)c1` the total bilirubin was 0.1 mg/dL and 0.2 mg/dL (esterase-deficient SCID mice, male; oral, 15 mg/kg/day, 14 days, toxicity study).
For `CCCSc1ccc2nc(NC(=O)OC)[nH]c2c1`, the aspartate aminotransferase was 52.7 U/L (mouse, blood; oral, 50 mg/kg, tolerability, mean).
With `CC[C@H](C)[C@@H]1NC(=O)[C@@H]2CCCN2C(=O)[C@H](CC(C)C)NC(=O)[C@H](CC(C)C)NC(=O)CNC(=O)[C@@H](NC(=O)[C@@H](NC(=O)[C@H](CC(=O)O)NC(=O)CNC(=O)[C@@H](NC(=O)[C@H](C)NC(=O)CNC(=O)[C@H](CCCCN)NC(=O)[C@H](CC(C)C)NC(=O)[C@H](CC(C)C)NC(=O)[C@H](CCCCN)NC(=O)CNC(=O)[C@@H](NC(=O)[C@@H](N)CC(C)C)C(C)C)C(C)C)C(C)C)CSSC[C@@H](C(=O)O)NC1=O` the distribution half-life was 8.4 ± 1.2 min (female C57BL/6 mice, plasma; intravenous, 10 mg/kg, two-compartment model).
`C=CC(=O)Nc1cc(Nc2nccc(Nc3cc(Cl)c(F)cc3C(C)(C)O)n2)c(OC)cc1N1CC[C@@H](N(C)C)C1`: “patients with AST increased” 6.3% (human patients; oral, 200 mg, treatment-emergent adverse events).
`COc1cc2c(Oc3ccc4[nH]c(C)cc4c3F)ccnc2cc1OCC1(N)CC1` — result for “abdominal pain incidence”: 36.4% (paediatric recurrent refractory sarcoma; 12 mg).
`O=S(=O)(Nc1ccccc1)c1ccc(NC(=S)Nc2ccccc2)cc1` — result for “serum enzyme activity”: 4840 U/L (item: CK; female mouse, blood; oral, 5 mg/kg daily, 14 days).
`CCc1ccc(CC/C=C/c2ccc3c(c2)C(=O)CC3)cc1` gave a prothrombin time of 12.8 s (Sprague-Dawley rat, female, blood; oral, 30 mg/kg/day, 14 days).
`CC[C@H](C)[C@H](NC(=O)[C@H](Cc1ccccc1)NC(=O)[C@H](CCC(=O)O)NC(=O)[C@H](CCCNC(=N)N)NC(=O)[C@H](C)NC(=O)[C@H](C)NC(=O)[C@H](CCC(N)=O)NC(=O)[C@H](CCC(=O)O)NC(=O)[C@H](CCC(=O)O)NC(=O)[C@H](CC(C)C)NC(=O)[C@H](Cc1ccc(O)cc1)NC(=O)[C@H](CO)NC(=O)[C@H](CO)NC(=O)[C@@H](NC(=O)[C@H](CC(=O)O)NC(=O)[C@H](CO)NC(=O)[C@@H](NC(=O)[C@H](Cc1ccccc1)NC(=O)[C@@H](NC(=O)CNC(=O)[C@H](CCC(=O)O)NC(=O)[C@H](C)NC(=O)CCc1cnc[nH]1)[C@@H](C)O)[C@@H](C)O)C(C)C)C(=O)N[C@@H](C)C(=O)N[C@@H](Cc1c[nH]c2ccccc12)C(=O)N[C@@H](CC(C)C)C(=O)N[C@H](C(=O)N[C@@H](CCCNC(=N)N)C(=O)NCC(=O)N[C@@H](CCCNC(=N)N)C(=O)N[C@@H](CCCCNC(=O)COCCOCCNC(=O)COCCOCCNC(=O)CC[C@H](NC(=O)CCCCCCCCCCCCCCCCC(=O)O)C(=O)O)C(=O)NCC(=O)NCC(=O)N[C@@H](CO)C(=O)N[C@@H](CCCCNC(=O)[C@H](CCCCNc1c(NCCCCCN(O)C(=O)CCC(=O)NCCCCCN(O)C(=O)CCC(=O)NCCCCCN(O)C(C)=O)c(=O)c1=O)Nc1c(NCCCCCN(O)C(=O)CCC(=O)NCCCCCN(O)C(=O)CCC(=O)NCCCCCN(O)C(C)=O)c(=O)c1=O)C(=O)O)C(C)C` [zirconium-89 labelled] gave a tissue uptake of 0.263 %ID/g (ex vivo gamma counting; male Sprague-Dawley rats, duodenum; intravenous, 1 nmol, 24 h).
`Cn1nc(NS(C)(=O)=O)c2c(Cl)ccc(-n3c([C@H](Cc4cc(F)cc(F)c4)NC(=O)Cn4nc(C(F)F)c5c4C(F)(F)[C@@H]4C[C@H]54)nc4nc(OCCC(F)(F)F)ccc4c3=O)c21`: “drug-related adverse events” 0% (item: blood triglycerides increased; human; 125 mg, powder in bottle).
`C[C@]1(CO)Cc2ncn(-c3ccc(C#N)c(Cl)c3)c2C(=O)O1` has a drug-related TEAEs of 15.6% (human; all doses, European multiple ascending dose).
For `COc1ccc(C[C@@H]2NC(=O)[C@H]([C@@H](C)O)NC(=O)[C@@H]3[C@@H]4CCN3C(=O)[C@@H]3Cc5cn(c6ccc(F)cc56)CCCCCCN(Cc5ccc(cc5)CCNC(=O)[C@]5(C)CCCN5C2=O)C(=O)CCC(=O)N[C@@H](C)C(=O)N[C@H](CNC(=O)CCCCC[N+](C)(C)C)C(=O)N[C@@H](Cc2cccc(c2)CNC(=O)CO4)C(=O)N3)cc1`, “participants with adverse event” read 13.7% (item: Nasopharyngitis; humans; concentration not given, Study-001).
`O=C(Nc1ccccc1)C1CCN(C(=O)Oc2cccnc2)CC1` — result for “change in contentment score”: 8.1 (Bond-Lader VAS; healthy women; oral, 20 mg; relative to: pre-dose baseline, direction not given).
For `CC(C)(O)c1cc(Nc2cc(Oc3cn(C4CC4)nc3C3CCOCC3)ccn2)ccn1`, “treatment-emergent adverse events” read 10% (Headache; advanced cancer patients, dose escalation; oral, dose not given, 2 weeks on/off, all causality grade ≥3).
`CO[C@H]1C[C@@H]2CC[C@@H](C)[C@@](O)(O2)C(=O)C(=O)N2CCCC[C@H]2C(=O)O[C@H]([C@H](C)C[C@@H]2CC[C@@H](OC(=O)NCCOCCOCCOCCOCCOCCOCCOCCOCCC(=O)N3CCc4cc(Cn5nc(-c6ccc7oc(N)nc7c6)c6c(N)ncnc65)ccc4C3)[C@H](OC)C2)C[C@@H](O)[C@H](C)/C=C(\C)[C@@H](O)[C@@H](OC)C(=O)[C@H](C)C[C@H](C)/C=C/C=C/C=C/1C` — result for “Neutropenia AE leading to dose reduction”: 0% (patients with advanced solid tumours; intravenous, 1.6 mg/3 mg weekly, grade ≥3).

For quick reference, copied from above:
`C[C@@H]1NC(=O)[C@H](CCCCNC(=O)CO/N=C/C(=O)NCCCC[C@@H]2NC(=O)[C@@H](Cc3ccccc3)NC(=O)[C@H](CC(=O)O)NC(=O)CNC(=O)[C@H](CCCNC(=N)N)NC2=O)NC(=O)CNC(=O)[C@@H]2CCCN2C(=O)[C@H](CCCCNC(=O)CO/N=C/C(=O)NCCCC[C@@H]2NC(=O)[C@@H](Cc3ccccc3)NC(=O)[C@H](CC(=O)O)NC(=O)CNC(=O)[C@H](CCCNC(=N)N)NC2=O)NC(=O)[C@H](CCCCNC(=O)CN2CCCNCCNCCCNCC2)NC(=O)[C@H](CCCCNC(=O)CO/N=C/C(=O)NCCCC[C@@H]2NC(=O)[C@@H](Cc3ccccc3)NC(=O)[C@H](CC(=O)O)NC(=O)CNC(=O)[C@H](CCCNC(=N)N)NC2=O)NC(=O)CNC(=O)[C@@H]2CCCN2C(=O)[C@H](CCCCNC(=O)CO/N=C/C(=O)NCCCC[C@@H]2NC(=O)[C@@H](Cc3ccccc3)NC(=O)[C@H](CC(=O)O)NC(=O)CNC(=O)[C@H](CCCNC(=N)N)NC2=O)NC1=O` [copper-64 labelled] gave a tissue uptake of 2.52 ± 0.41 %ID/g (normal mice, spleen; intravenous, 0.74 MBq, 3 h post-injection).
For `Brc1ccc(Oc2cc(Br)c(Br)cc2Br)c(Br)c1`, “dose fraction in skim milk” read 8.73% (whole cow milk; 20 nM nominal).
